Earlier results, collected from citations in different studies.
Lines come from different studies, so protocols differ. Several values in a cell are separate wells, animals, samples, runs or records. ± gives the spread as reported. ≈ marks a conversion by molar mass, not a printed value.

For `CC[C@H](C)[C@H](NC(=O)[C@H](CO)NC(=O)[C@H](Cc1ccc(O)cc1)NC(=O)[C@H](CC(=O)O)NC(=O)[C@H](CO)NC(=O)[C@@H](NC(=O)[C@H](Cc1ccccc1)NC(=O)[C@@H](NC(=O)CNC(=O)[C@H](CCC(=O)O)NC(=O)[C@H](C)NC(=O)[C@@H](N)Cc1ccc(O)cc1)[C@@H](C)O)[C@@H](C)CC)C(=O)N[C@@H](C)C(=O)N[C@@H](CCSC)C(=O)N[C@@H](CC(=O)O)C(=O)N[C@@H](CCCCN)C(=O)N[C@H](C(=O)N[C@@H](Cc1c[nH]cn1)C(=O)N[C@@H](CCC(N)=O)C(=O)N[C@@H](CCC(N)=O)C(=O)N[C@@H](CC(=O)O)C(=O)N[C@@H](Cc1ccccc1)C(=O)N[C@H](C(=O)N[C@@H](CC(N)=O)C(=O)N[C@@H](Cc1c[nH]c2ccccc12)C(=O)N[C@@H](CC(C)C)C(=O)N[C@@H](CC(C)C)C(=O)N[C@@H](C)C(=O)N[C@@H](CCC(N)=O)C(=O)N[C@@H](CCCCN)C(=O)NCC(=O)N[C@@H](CCCCN)C(=O)N[C@@H](CCCCN)C(=O)N[C@@H](CC(N)=O)C(=O)N[C@@H](CC(=O)O)C(=O)N[C@@H](Cc1c[nH]c2ccccc12)C(=O)N[C@@H](CCCCN)C(=O)N[C@@H](Cc1c[nH]cn1)C(=O)N[C@@H](CC(N)=O)C(=O)N[C@H](C(=O)N[C@H](C(=O)N[C@@H](CCC(N)=O)C(=O)O)[C@@H](C)O)[C@@H](C)CC)C(C)C)[C@@H](C)CC`, the half-life was 5 to 7 min (in vivo; degradation by DPP4).
`C=CC(=O)N1CCC[C@@H](n2nc(-c3ccc(Oc4ccccc4)cc3)c3c(N)ncnc32)C1` has a solubility of 0.0982 mg/mL (≈ 223 µM) (FaSSIF; literature value).
For `COc1ccc(/C=C/C(=O)Nc2ccccc2C(=O)O)cc1OC`, the Cmax was 37 µM (plasma; concentration not given, total, steady state).
`O=C(c1cc(Cc2n[nH]c(=O)c3ccccc23)ccc1F)N1CCN(C(=O)C2CC2)CC1` gave a Cmin of 0.61 µg/mL (human; oral tablet, 200 mg twice daily, multiple dose).
`Nc1nc(=O)n([C@@H]2C=C[C@H](CO)O2)cc1F` gave an oral bioavailability of 32% (human; 20 mg).
Under “adverse event incidence”, `C[C@@H](Oc1cc(-c2cnn(C3CCNCC3)c2)cnc1N)c1c(Cl)ccc(F)c1Cl` is recorded as 61% (refers to: diarrhea; treatment-naive ALK-positive NSCLC patients; dose not given, monotherapy trial).
`O=C1NCCN1CCN1CCC(c2cn(-c3ccc(F)cc3)c3ccc(Cl)cc23)CC1` gave a free Cmax of 0.002 µM (human).
`Cc1nnc(SCC2=C(C(=O)O)N3C(=O)[C@@H](NC(=O)Cn4cnnn4)[C@H]3SC2)s1` has a free Cmax of 208 µM (plasma; literature data).
The crossover pressure of `CCCC(CCC)C(=O)O` is reported as 170 to 190 bar (supercritical CO2).
For `Cc1cn([C@H]2C=C[C@@H](CO)O2)c(=O)[nH]c1=O`, the oral bioavailability was 98% (mouse; 25 mg/kg).
For `CN/C(=N/CCSCc1nc[nH]c1C)NC#N`, the CLint was 2.87 µL/min/mg protein (human liver microsomes).
`COC(=O)N[C@H](C(=O)N1CCC[C@H]1c1nc(-c2ccc3c(c2)O[C@@H](c2ccccc2)n2c-3cc3cc(-c4c[nH]c([C@@H]5CCCN5C(=O)[C@@H](NC(=O)OC)C(C)C)n4)ccc32)c[nH]1)C(C)C`: “unchanged drug excreted in faeces” 61% (bile duct-cannulated rats; oral, dose not given).
`c1ccc2ccccc2c1` — result for “amount in tissue”: 0.101 ng/well and 0.0951 ng/well and 0.0991 ng/well (zebrafish embryos, whole embryo; 69.08 ng/well, 48 hpf, single exposure).
`Cc1cn([C@H]2C[C@H](N=[N+]=[N-])[C@@H](CO)O2)c(=O)[nH]c1=O` gave an oral bioavailability of 45% (monkey; 60 mg/kg).
`NC(=O)N1c2ccccc2CC(=O)c2ccccc21` has a solubility of less than 1 mg/mL (water).
For `Cc1c(OCC(F)(F)F)ccnc1C[S+]([O-])c1nc2ccccc2[nH]1` (stereo not shown), the crossover pressure was 190 to 210 bar (supercritical CO2).
For `COc1cc(N2CCC(N3CCN(C)CC3)CC2)ccc1Nc1ncc(Cl)c(Nc2ccccc2P(C)(C)=O)n1`, “Cmax at steady state” read 1.15 µg/mL (patients with cancer, plasma; dose not given, geometric mean).
The solubility of `CCCS(=O)(=O)Nc1ccc(F)c(C(=O)c2c[nH]c3ncc(-c4ccc(Cl)cc4)cc23)c1F` is reported as 0.0054 mg/mL (≈ 11 µM) (FaSSIF; literature value).
For `C=C(F)C(=O)N1CCN(c2nc(OC[C@@H]3CCCN3C)nc3c2CCN(c2cccc4cccc(Cl)c24)C3)C[C@@H]1CC#N`, the terminal half-life was 23 h (patients, advanced solid tumours; dose not given).
`C[C@@H]1O[C@@H](OC[C@H]2O[C@@H](Oc3c(-c4ccc(O)c(O)c4)oc4cc(O)cc(O)c4c3=O)[C@H](O)[C@@H](O)[C@@H]2O)[C@H](O)[C@H](O)[C@H]1O` has a solubility of less than 1 mg/mL (water).
`C#C[C@]1(O)CC[C@H]2[C@@H]3CCC4=CC(=NO)CC[C@@H]4[C@H]3CC[C@@]21CC` (mixture of isomers) — result for “Cmax, geometric mean”: 0.00196 µg/mL (human, fed; 0.215 mg norgestimate, after 7 days dosing).
`Cc1nn(C)cc1S(=O)(=O)NC(=O)c1ccc(-n2ccc(OCC(C)(C)C(F)(F)F)n2)nc1N1C[C@@H](C)CC1(C)C`: “fraction unbound in enterocytes” 0.000775 (human).
With `COc1cc2c(Oc3ccc4[nH]c(C)cc4c3F)ccnc2cc1OCC1(N)CC1` the MRT(0-inf) was 162 ± 41.3 h (human, fasting; 5 mg).
Under “radioactivity as metabolites”, `CN1CCC(COc2cnc(-c3cccc(Cn4nc(-c5cccc(C#N)c5)ccc4=O)c3)nc2)CC1` is recorded as 48% (human; dose not given, mass balance study).
With `FC(F)(F)c1ccc(CNc2ccc(Cc3c[nH]c4ncc(Cl)cc34)cn2)cn1` the AUC(0-24 h) was 56.2 µg·h/mL (patients, plasma; oral, 600 mg once daily, day 1, mean).
`CN[C@@H](C)C(=O)N[C@H]1CN(S(=O)(=O)c2cccc(S(=O)(=O)N3CC[C@H]4CC[C@@H](C(=O)NC(c5ccccc5)c5ccccc5)N4C(=O)[C@@H](NC(=O)[C@H](C)NC)C3)c2)CC[C@H]2CC[C@@H](C(=O)NC(c3ccccc3)c3ccccc3)N2C1=O`: “grade ≥3 ALT elevation” 3.6% (Chinese advanced solid tumour patients; dose not given, treatment-related adverse events).
Under “unchanged drug in urine”, `C[C@]1(c2nc3c(C(N)=O)cccc3[nH]2)CCCN1` is recorded as 70% (patients with cancer; oral, 50 mg; reference: dose).
`Cc1cc(-c2nccc3c2ccn3CC(=O)Nc2ccc(-c3cnccn3)cn2)ccn1` — result for “AUC(0-24 h), total”: 990 nM·h (dog; 3 mg/kg/day, 1 month, repeat dosing).
With `O=C(CCCN1CC=C(n2c(=O)[nH]c3ccccc32)CC1)c1ccc(F)cc1` the solubility was less than 1 mg/mL (water).
`C[Si]1(C)O[Si](C)(C)O[Si](C)(C)O[Si](C)(C)O1` has a log KOA of 4.31 (dry 1-octanol/air; 25 °C).
The solubility of `COC1CC2CCC(C)C(O)(O2)C(=O)C(=O)N2CCCCC2C(=O)OC(C(C)CC2CCC(OCCO)C(OC)C2)CC(=O)C(C)/C=C(\C)C(O)C(OC)C(=O)C(C)CC(C)/C=C/C=C/C=C/1C` (stereo not shown) is reported as less than 1 mg/mL (water).
With `CC(=O)Oc1cccc2c1C(=O)c1c(OC(C)=O)cc(C(=O)O)cc1C2=O` the diarrhoea incidence was 41% (human; concentration not given, clinical).
For `CO[C@H]1C[C@@H]2CC[C@@H](C)[C@@](O)(O2)C(=O)C(=O)N2CCCC[C@H]2C(=O)O[C@H]([C@H](C)C[C@@H]2CC[C@@H](OCCO)[C@H](OC)C2)CC(=O)[C@H](C)/C=C(\C)[C@@H](O)[C@@H](OC)C(=O)[C@H](C)C[C@H](C)/C=C/C=C/C=C/1C`, “intercompartmental clearance (Q)” read 46.2 L/h (plasma; population PK two-compartment).
`CNC[C@H](O)c1cccc(O)c1` gave a free Cmax of 0.00308 µM (human).
For `Cc1cccc(Nc2ccccc2C(=O)O)c1C`, the Cmax was 82.9 µM (plasma; concentration not given, total, steady state).
`C[C@@H](O)[C@H]1C(=O)N2C(C(=O)O)=C(SCCN=CN)C[C@H]12` — result for “serum concentration reduction”: 73% (perpetrator, refers to: valproic acid; human, serum; dose not given; reference: without compound).
`CNC(=O)c1c(C)oc2cc(Oc3ncnc4cc(OC)c(OC)cc34)ccc12`: “unchanged dose recovered” 5.34% (feces; 5 mg radiolabelled, time not given).
`O=C(O)c1ccccc1O` gave a solubility of less than 1 mg/mL (water).
With `Cc1ccc(Nc2nccc(N(C)c3ccc4c(C)n(C)nc4c3)n2)cc1S(N)(=O)=O.Cl` the crossover pressure was 180 to 200 bar (supercritical CO2).
`C[Si](C)(C)O[Si](C)(C)O[Si](C)(C)O[Si](C)(C)C` has a log KAW of 3.04 (vapour pressure over solubility; 25 °C).
For `Nc1nc(NC2CC2)c2ncn([C@H]3C=C[C@@H](CO)C3)c2n1`, the oral bioavailability was greater than 76% (mouse; dose not given).
`CN[C@H]1CC[C@@H](c2ccc(Cl)c(Cl)c2)c2ccccc21` has a lower exposure of 22% (human children and adolescents; dose not given, weight-adjusted plasma concentration; reference: adults).
`NS(=O)(=O)c1cc2c(cc1Cl)N=CNS2(=O)=O` gave a crossover pressure of roughly 17 MPa (solubility in supercritical CO2).
With `COC(=O)N[C@@H](C)CNc1nccc(-c2cn(C(C)C)nc2-c2cc(Cl)cc(NS(C)(=O)=O)c2F)n1` the excreted fraction was 47% (human, urine; dose not given).
For `CCc1cc(/C(C)=N/OCc2ccc(C3CCCCC3)c(C(F)(F)F)c2)ccc1CN1CC(C(=O)O)C1`, the clearance was 3.16 L/h (population PK; human, CYP2C9*1/*2).
`COCCc1ccc(OCC(O)CNC(C)C)cc1` (stereo not shown) gave an AUC(0-24 h) of 1.56 µg·h/mL (human fasted; 200 mg multiple doses, day 7, mean).
`Cc1nc(NC(=O)N2CCC[C@H]2C(N)=O)sc1-c1ccnc(C(C)(C)C(F)(F)F)c1`: “increase in Cmax” 145% (human; oral, 300 mg single dose, together with: meal, low fat, low calorie; reference: fasted).
With `Nc1nc(=O)n([C@@H]2CS[C@H](CO)O2)cc1F` the bioavailability was 63% (monkey; 10 mg/kg).
For `CC(C)(/C=C(\C#N)C(=O)N1CCC[C@@H](n2nc(-c3ccc(Oc4ccccc4)cc3F)c3c(N)ncnc32)C1)N1CCN(C2COC2)CC1`, “volume of distribution” read 4760 L (human; 600 mg once daily).
For `C=CC(=O)N1CCC([C@@H]2CCNc3c(C(N)=O)c(-c4ccc(Oc5ccccc5)cc4)nn32)CC1`, the AUC(0-8) was 1.27 ± 0.579 µg·h/mL (human patients, plasma; oral, 160 mg twice daily, day 1).
`CCN(Cc1cccc(S(=O)(=O)[O-])c1)c1ccc(C(=C2C=CC(=[N+](CC)Cc3cccc(S(=O)(=O)[O-])c3)C=C2)c2ccccc2S(=O)(=O)[O-])cc1.[Na+].[Na+]` has a λmax of 630 nm (UV-vis absorption).
The solubility of `CO[C@H]1C(=O)[C@]2(C)[C@@H](OC)C[C@H]3OC[C@@]3(OC(C)=O)[C@H]2[C@H](OC(=O)c2ccccc2)[C@]2(O)C[C@H](OC(=O)[C@H](O)[C@@H](NC(=O)OC(C)(C)C)c3ccccc3)C(C)=C1C2(C)C` is reported as less than 1 mg/mL (water).
`CN(C)C(=O)c1cc2cnc(Nc3ccc(N4CCNCC4)cn3)nc2n1C1CCCC1` gave a dose excreted of 69.1% (human, feces; oral, 600 mg, radiolabelled; reference: dose).
The Tmax of `CC(C)=CCc1cc2c(cc1O)O[C@H](c1ccc(O)cc1)CC2=O` is reported as 1 h (rat, plasma).
With `CNCc1cc(-c2ccccc2F)n(S(=O)(=O)c2cccnc2)c1` the Tmax was 1.5 h (human, plasma; 30 mg multiple dose, observed clinical data).
For `Cn1c(Cn2ccc(C(F)(F)F)c(Oc3cc(Cl)cc(C#N)c3)c2=O)n[nH]c1=O`, the Headache incidence was 13.8% (human subjects; dose not given, up to 48 weeks).
`COc1cc2c(Nc3ccc(Br)cc3F)ncnc2cc1OCC1CCN(C)CC1` gave a free Cmax of 0.267 µM (human).
`Cc1nc(Nc2ncc(C(=O)Nc3c(C)cccc3Cl)s2)cc(N2CCN(CCO)CC2)n1` has an aqueous solubility of less than 0.001 mg/mL (pH 6.8).

Repeated from above:
The crossover pressure of `CCCC(CCC)C(=O)O` is reported as 170 to 190 bar (supercritical CO2).
For `Cc1cn([C@H]2C=C[C@@H](CO)O2)c(=O)[nH]c1=O`, the oral bioavailability was 98% (mouse; 25 mg/kg).
For `CN/C(=N/CCSCc1nc[nH]c1C)NC#N`, the CLint was 2.87 µL/min/mg protein (human liver microsomes).
`COC(=O)N[C@H](C(=O)N1CCC[C@H]1c1nc(-c2ccc3c(c2)O[C@@H](c2ccccc2)n2c-3cc3cc(-c4c[nH]c([C@@H]5CCCN5C(=O)[C@@H](NC(=O)OC)C(C)C)n4)ccc32)c[nH]1)C(C)C`: “unchanged drug excreted in faeces” 61% (bile duct-cannulated rats; oral, dose not given).
`c1ccc2ccccc2c1` — result for “amount in tissue”: 0.101 ng/well and 0.0951 ng/well and 0.0991 ng/well (zebrafish embryos, whole embryo; 69.08 ng/well, 48 hpf, single exposure).
`Cc1cn([C@H]2C[C@H](N=[N+]=[N-])[C@@H](CO)O2)c(=O)[nH]c1=O` gave an oral bioavailability of 45% (monkey; 60 mg/kg).
`NC(=O)N1c2ccccc2CC(=O)c2ccccc21` has a solubility of less than 1 mg/mL (water).
For `Cc1c(OCC(F)(F)F)ccnc1C[S+]([O-])c1nc2ccccc2[nH]1` (stereo not shown), the crossover pressure was 190 to 210 bar (supercritical CO2).
For `COc1cc(N2CCC(N3CCN(C)CC3)CC2)ccc1Nc1ncc(Cl)c(Nc2ccccc2P(C)(C)=O)n1`, “Cmax at steady state” read 1.15 µg/mL (patients with cancer, plasma; dose not given, geometric mean).
